Published values gathered from unrelated publications.
A part holds a random share of what one study measured. Substitutions count along the parent as printed.

Block 1 — method: DHFR PCA, deep sequencing; medium: yeast; added: (+)-ABA 2500 µM; reference: wild-type fitted maximum; reading: higher = stronger binding; quantity: relative binding score
Target: ABI1, truncated, D143A, DHFR fusion (Arabidopsis thaliana)
Notes: methotrexate growth selection, single substitutions
Parent: PYL1, truncated, DHFR fusion (Arabidopsis thaliana); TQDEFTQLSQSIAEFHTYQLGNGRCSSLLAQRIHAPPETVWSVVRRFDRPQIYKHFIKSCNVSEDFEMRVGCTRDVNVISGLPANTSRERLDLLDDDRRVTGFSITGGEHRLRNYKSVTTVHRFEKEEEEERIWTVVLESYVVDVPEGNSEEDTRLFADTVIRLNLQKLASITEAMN; partner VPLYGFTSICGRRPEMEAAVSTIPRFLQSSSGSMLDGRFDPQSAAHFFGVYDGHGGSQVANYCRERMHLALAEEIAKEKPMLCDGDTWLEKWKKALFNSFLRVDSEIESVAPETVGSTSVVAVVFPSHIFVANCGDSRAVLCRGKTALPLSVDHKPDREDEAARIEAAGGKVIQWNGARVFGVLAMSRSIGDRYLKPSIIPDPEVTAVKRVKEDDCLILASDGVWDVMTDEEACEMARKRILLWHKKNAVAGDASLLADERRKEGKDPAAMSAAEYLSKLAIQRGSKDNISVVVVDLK
D48L: 36.5%
L138F: 109%
K168G: 95.1%
N61Y: 98.2%
F157Y: 95.9%
D95R: 88.8%
V121Y: 2.45%
F47G: 7.75%
S104F: 80.5%
A175C: 96.4%
D97Y: 92%
D159T: 86.6%
T17F: 90.2%
S150H: 92.1%

Block 2 — method: universal PBM; molecule type: double-stranded DNA, one strand shown; medium: in vitro; concentration: 600 nM; reading: higher = stronger binding; quantity: E-score
Target: Sal-like protein 4, full length isoform A (SALL4, Homo sapiens, UniProt Q9UJQ4, residues 1-1053)
Chain of UniProt Q9UJQ4 (whole entry, looked up): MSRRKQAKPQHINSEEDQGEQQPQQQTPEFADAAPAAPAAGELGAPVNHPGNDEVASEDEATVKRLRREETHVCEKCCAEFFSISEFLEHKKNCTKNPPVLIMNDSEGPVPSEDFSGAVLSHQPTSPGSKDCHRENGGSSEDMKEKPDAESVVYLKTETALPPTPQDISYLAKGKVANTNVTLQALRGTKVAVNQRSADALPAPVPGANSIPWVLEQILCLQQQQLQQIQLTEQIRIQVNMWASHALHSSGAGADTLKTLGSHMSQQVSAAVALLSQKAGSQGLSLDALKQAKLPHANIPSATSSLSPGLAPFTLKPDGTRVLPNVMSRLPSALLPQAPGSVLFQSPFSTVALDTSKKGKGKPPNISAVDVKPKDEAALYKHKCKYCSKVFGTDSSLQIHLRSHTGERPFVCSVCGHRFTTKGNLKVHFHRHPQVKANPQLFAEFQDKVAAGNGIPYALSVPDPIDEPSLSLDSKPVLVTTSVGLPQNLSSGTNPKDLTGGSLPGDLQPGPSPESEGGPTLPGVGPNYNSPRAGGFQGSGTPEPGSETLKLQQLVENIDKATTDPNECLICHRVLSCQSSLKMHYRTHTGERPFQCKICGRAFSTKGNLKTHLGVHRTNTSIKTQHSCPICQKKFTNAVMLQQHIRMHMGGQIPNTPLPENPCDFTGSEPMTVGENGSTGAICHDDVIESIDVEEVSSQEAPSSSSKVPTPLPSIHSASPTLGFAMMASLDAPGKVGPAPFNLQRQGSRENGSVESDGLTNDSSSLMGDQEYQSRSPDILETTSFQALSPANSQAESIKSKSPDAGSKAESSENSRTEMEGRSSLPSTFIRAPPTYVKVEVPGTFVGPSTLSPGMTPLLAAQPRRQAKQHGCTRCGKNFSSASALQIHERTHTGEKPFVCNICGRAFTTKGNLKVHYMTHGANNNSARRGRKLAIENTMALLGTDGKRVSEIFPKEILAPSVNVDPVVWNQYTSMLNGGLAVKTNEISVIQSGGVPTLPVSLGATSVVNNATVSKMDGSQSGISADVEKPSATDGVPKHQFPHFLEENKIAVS
Notes: 8-mer, flanks averaged, mean of replicates
CGTTCAGA: -0.128
GTTATCCA: 0.159
CTTCACTA: 0.161
GTGATTGA: 0.203
AGGATGTA: 0.128
ATCTTCTC: 0.0192
CCCTAAGA: -0.207
AAGTAGAC: -0.106
GATGACAC: -0.118
AGCAACTG: -0.0907
CCACAATC: -0.0639
CGCATCAC: 0.0339
GAGGAAGC: -0.221
CACGCTAA: -0.043
CAGATGTA: 0.109
AACGGTCG: -0.0373
ACAGTTGA: -0.0755
CCGTTGTA: 0.0866
GACGGCTC: -0.289
GTCCAAAC: -0.14
GACAGTAC: 0.0574
GGGTTGCA: -0.0777
GACTTCTA: -0.0067
AAAGAAAG: 0.167
AGCTCAAC: -0.232

Block 3 — method: RNA Bind-n-Seq; molecule type: RNA; medium: in vitro; concentration: 200 nM; notes: whole 134-nt RNA, ends assumed; added: 150 mM KCl; reference: input library; reading: higher = stronger binding; quantity: log2 enrichment
Target: Fragile X messenger ribonucleoprotein 1, C-terminal low-complexity region (Fmr1, Mus musculus, UniProt P35922)
All sequences stand within: GGGAGUUCUACAGUCCGACGAUC … UGGAAUUCUCGGGUGUCAAGG
GUCCUGUGCUACACAUCGUAUGUACCGAAUCGGGUUUUUGGGGUUUUUGGGUUUUUGGGAAAGUAUUAUGUUACGCCGUUCGGAUCUGCA: 0.308
AGUCCUGUGCUACACAUCGUAUGUACCGAAUCGGUUUUGGGGUUUUGGGGUUUUGGGAAAGUAUUAUGUUACGCCGUUCGGAUCUGCACU: -0.0303
GUCCUGUGCUACACAUCGUAUGUACCGAAUCAAAUUUAAACCCCCAAAUUUUUUUAAAAAAGUAUUAUGUUACGCCGUUCGGAUCUGCAC: 0.33
UCCUCAAGUCCUGUGCUACACAUCGUAUGUACCGAAUCGGAAAGGAGGUGGAAAGUAUUAUGUUACGCCGUUCGGAUCUGCACUUCCAGC: -0.496
UGGCCCUGGUGGCAUGCGGGGAGGAAGAGGUGGCCUCAUGGAACGUGGUGGUCCCGGUGGAAUGUUCAGAGGUGGCCGUGGUGGAGACAG: 0.113
CAAGUCCUGUGCUACACAUCGUAUGUACCGAAUCGGGAAAGGAAAGGGAAAGGGGAAAGUAUUAUGUUACGCCGUUCGGAUCUGCACUUC: 0.139
CUCAAGUCCUGUGCUACACAUCGUAUGUACCGAAUCGGGUUGGGUUGGGUUGGAAAGUAUUAUGUUACGCCGUUCGGAUCUGCACUUCCA: 0.548
UAACUUUAGAGGAGGAUCUGAUGGAUAUGGCAGUGGACGGGGAUUUGGGGAUGGCUAUAAUGGGUAUGGAGGAGGACCUGGAGGUGGCAA: 0.381
UGGCCCUGGUGGCAUGCGGGGACGAAGAGGUGGCCUCAUGGAUCGUGGUGGUCCCGGUGGAAUGUUCAGAGGUGGCCGUGGUGGAGACAG: -0.0732
UGGGCGGCUGCGAGAUGAGAACGGACGACCCUACUCGCCCAGUCAGUAUGCGCUCCAGUACGCCGGGGACGGCAGUGUCCUCCUCAUCCC: 0.389
AGUCCUGUGCUACACAUCGUAUGUACCGAAUCAAAUUUUUAAAUUUUUAAACCCAAAAAAGUAUUAUGUUACGCCGUUCGGAUCUGCACU: 0.145
AAGUCCUGUGCUACACAUCGUAUGUACCGAAUCGGGUUUGGGAGGGAAAAAAAGGGAAAGUAUUAUGUUACGCCGUUCGGAUCUGCACUU: 0.354
UAACUUUAGAGGAGGAUCUGAUGGAUAUGGCAGUGGACGUGGAUUUGGGGAUGGCUAUAAUGGGUAUGGAGGAGGACCUAGAGGUGGCAA: 0.129
GUCCUGUGCUACACAUCGUAUGUACCGAAUCGGGGUUUGGGGAAAAAAAGGGGAGGGGAAAGUAUUAUGUUACGCCGUUCGGAUCUGCAC: 0.474

Block 4 — method: protein binding microarray; molecule type: double-stranded DNA, one strand shown; medium: in vitro; concentration: not given; reference: not given; reading: higher = stronger binding; quantity: E-score
Target: Histone acetyltransferase KAT6A, winged helix 2, GST fusion (KAT6A, Homo sapiens, UniProt Q92794, residues 85-181)
Notes: 8-mer, flanks averaged, mean of 2 arrays, mostly near background
Construct (chain): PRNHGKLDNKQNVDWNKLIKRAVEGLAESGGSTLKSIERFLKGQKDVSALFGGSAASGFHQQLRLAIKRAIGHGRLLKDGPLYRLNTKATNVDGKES
AGAGCTAG: -0.0201
GCGCATAC: 0.0204
AAGTAGTA: -0.122
AAGGAGAA: -0.17
AGAAATTC: 0.0763
AAGGGCCT: 0.0608
AATTAGCA: 0.186
CCTGCACC: -0.0194
ATCAGTCG: 0.0759
AATCTAAT: -0.0628
GCCACGAC: 0.131
ACCATCAT: -0.195
AGCCAACC: 0.142
CGACCTAG: 0.126
CGGAGGGC: 0.135
CGCAAGCA: 0.0714
AAGAGATA: -0.0669
CCACGCCG: 0.2
CGCGTGCC: 0.0703
CCATAGTA: -0.129
GTATTGGA: -0.115
CGTCTGCC: -0.0782
GCTCGCAC: 0.217
AGATACCT: -0.132
ACTAAGCT: 0.16

Block 5 — method: protein-binding microarray; molecule type: double-stranded DNA, one strand shown; medium: in vitro; concentration: 0.8 µM; notes: whole 60-bp probe, no competitor; reading: higher = stronger binding; quantity: fluorescence intensity; all sequences stand within: … GTCTTGATTCGCTTGACGCTGCTG
Target: Centromere-binding protein 1, full length, N-terminal tag (CBF1, Saccharomyces cerevisiae, UniProt P17106, residues 1-351)
Chain of UniProt P17106 (whole entry, looked up): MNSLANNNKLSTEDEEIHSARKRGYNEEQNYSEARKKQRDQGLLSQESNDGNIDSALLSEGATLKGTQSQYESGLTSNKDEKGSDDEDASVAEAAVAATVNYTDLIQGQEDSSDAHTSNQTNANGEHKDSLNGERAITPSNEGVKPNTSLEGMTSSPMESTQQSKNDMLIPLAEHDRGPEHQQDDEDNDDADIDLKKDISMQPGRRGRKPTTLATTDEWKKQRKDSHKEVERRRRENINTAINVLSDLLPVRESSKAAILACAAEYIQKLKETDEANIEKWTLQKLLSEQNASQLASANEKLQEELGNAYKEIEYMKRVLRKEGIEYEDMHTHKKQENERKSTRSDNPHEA
GAATTTGCCGTTGGCCTGATGATCTGACCATTCTAG: 519 a.u.
CTAGCAAATGCATTAGAGGTGGCGTTTTCCTCTTTC: 486 a.u.
CTAAGATATAACACTCTGATGCAGATTTATGAATTC: 522 a.u.
GAAAAACTGAGTCATCACGTAATATTCTAATTATAG: 577 a.u.
CTACACGATAGATTACAGCTGACCAACTTAGAATTC: 600 a.u.
GAAATATCTAGAACTCACGTTATGATATATTCTTAG: 648 a.u.
GAACAAGCAGGCATTCACATGCATCAGTTGAAATAG: 607 a.u.
CTAGAAGGAGAAATAACCGTGATATTATTATGTTTC: 542 a.u.
GAAATATATGATCGTGATTATACACCGTTATTTTAG: 605 a.u.
CTATCTTTGAAAAATCACGAGATGGTGCATATTTTC: 1340 a.u.
GAAATCCTTGTCAATAACGTGCTTGAGTGCTCATAG: 634 a.u.
CTAATTAAAATAAGTGACGTGAGAGATATAATTTTC: 524 a.u.
GAATCATTCTTTAACATCACAATGCTTTATTATTAG: 528 a.u.
CTAACTATATAAAGTCACGTTAGAATGCAATTTTTC: 1380 a.u.
GAATGCTCTCTTCGTGTCATTCCTTATAGCATATAG: 540 a.u.
GAAGCCACAGGACATGGCGTGAAACGTGTAGGCTAG: 512 a.u.
GAATTCTTTGAGATACACGTTACCAAAAGAATATAG: 877 a.u.
GAACATTTGCTGTCTGCTGATGTCAATTAATTGTAG: 946 a.u.
GAAACACGAAGCGGCCACGTGGGTCTGCGATGGTAG: 4080 a.u.
GAACAATAGCTACGTGATATAATCTAAATAATTTAG: 621 a.u.
CTATAGCGAGGCCGTGTCACGTTCCCTTTTTTGTTC: 3020 a.u.

Block 6 — method: protein-binding microarray; molecule type: double-stranded DNA, one strand shown; medium: in vitro; concentration: 2540 nM top; notes: 60-bp whole probe; added: salmon DNA 0.4 mg/ml; reference: random background probes; reading: higher = stronger binding; quantity: fitted relative affinity; all sequences stand within: GCCTAGCAC … GTCTTGATTCGCTTGACGCTGCTG
Target: Interferon regulatory factor 3, full length, phosphomimetic (IRF3, Homo sapiens, UniProt Q14653, residues 1-427, S386D/S396D/S398D/S402D/T404D/S405D)
Chain of UniProt Q14653 (whole entry, unmodified, looked up): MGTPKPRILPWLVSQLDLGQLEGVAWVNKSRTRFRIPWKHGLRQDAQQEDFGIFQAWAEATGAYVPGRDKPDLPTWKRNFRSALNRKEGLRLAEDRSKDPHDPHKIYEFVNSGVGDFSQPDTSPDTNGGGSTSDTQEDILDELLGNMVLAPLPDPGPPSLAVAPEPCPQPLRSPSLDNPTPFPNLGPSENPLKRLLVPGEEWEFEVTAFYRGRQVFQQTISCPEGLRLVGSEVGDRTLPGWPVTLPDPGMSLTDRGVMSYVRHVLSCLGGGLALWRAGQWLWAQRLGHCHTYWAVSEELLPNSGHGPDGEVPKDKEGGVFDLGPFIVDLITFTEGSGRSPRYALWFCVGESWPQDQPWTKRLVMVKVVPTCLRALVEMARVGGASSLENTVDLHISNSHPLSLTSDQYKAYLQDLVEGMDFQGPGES
GACGGCCTGGGGTTTCGGGACGTGCTA: 0.159 z-score
GACGGTATCGGTTTCGGGAGGTGCTAG: 6.86 z-score
CTGGTTTTACTTTCTATCTCGTGCTAG: 5.3 z-score
GAAGGTTTCGGGACTGGGGACGTGCTA: 4.02 z-score
TTAGGTAACGGTTTCGGTTAGTGCTAG: 4.76 z-score
TGAGATCTCAGTTTCGATTAGTGCTAG: 3.53 z-score
GACGGACTGCTTTTTCTGACGTGCTAG: -0.0608 z-score
TCAGAATTTACTTTCTAACTGTGCTAG: 1.71 z-score
GACGGACTAGGACTGGGGACGTGCTAG: -0.575 z-score
GACGGTCTCCTTCTCCTGAGGTGCTAG: 4.2 z-score
GACCGACTGGGGTTTCGGGACGTGCTA: 1.12 z-score
TTATATTTCAGTTTCGATTAGTGCTAG: 5.34 z-score
GACGGACTGGACAATGGGGACGTGCTA: -0.636 z-score
GACGATATCGGGTATAGAGACGTGCTA: 0.0899 z-score
CACGGTATCGACACTGGGGACGTGCTA: 0.208 z-score
TTAGGTTTGGACTTTCGGTTAGTGCTA: 1.06 z-score
CAGTAGATGGCGCCTGAGAGGTGCTAG: -0.752 z-score
TCAGATATCAGTCTCGATTAGTGCTAG: 1.73 z-score
GACGAATTCGGGACTGGAGACGTGCTA: 0.369 z-score
GACCGACTGCTTTTCCTGACGTGCTAG: 0.195 z-score
TCAAAACTAAGTTTATTACTGTGCTAG: -0.0503 z-score
GACGATCTCAGACAGGAGACGTGCTAG: 0.292 z-score

For quick reference, copied from above (block 6):
CTGGTTTTACTTTCTATCTCGTGCTAG: 5.3 z-score
GAAGGTTTCGGGACTGGGGACGTGCTA: 4.02 z-score
TTAGGTAACGGTTTCGGTTAGTGCTAG: 4.76 z-score
TGAGATCTCAGTTTCGATTAGTGCTAG: 3.53 z-score
GACGGACTGCTTTTTCTGACGTGCTAG: -0.0608 z-score
TCAGAATTTACTTTCTAACTGTGCTAG: 1.71 z-score
GACGGACTAGGACTGGGGACGTGCTAG: -0.575 z-score
GACGGTCTCCTTCTCCTGAGGTGCTAG: 4.2 z-score
GACCGACTGGGGTTTCGGGACGTGCTA: 1.12 z-score
TTATATTTCAGTTTCGATTAGTGCTAG: 5.34 z-score
GACGGACTGGACAATGGGGACGTGCTA: -0.636 z-score
GACGATATCGGGTATAGAGACGTGCTA: 0.0899 z-score
